{"data": "Measured values gathered from unrelated publications", "note": "Compare with care: the assays were run in different laboratories. Several values in a cell are separate wells, animals, samples, runs or records. Numbers after ± are the reported error."}
{"Structure (SMILES)": "O=C1Nc2ccccc2/C1=C\\c1c(Cl)[nH]c2ccccc12", "cell line": "HeLa expressing Ub(G76V)-GFP", "assay": "Ub(G76V)-GFP degradation, cycloheximide chase", "setting": "12 µM", "measurement": "inhibition", "value": "44%"}
{"Structure (SMILES)": "CC[C@H](C)n1cc(C)c2c(C(=O)NCc3c(C)cc(C)[nH]c3=O)cc(-c3ccc(N4CCNCC4)nc3)cc21", "cell line": "HBL-1", "setting": "0.1 µM, 120 h", "measurement": "viability", "value": "137%"}
{"Structure (SMILES)": "Cn1c(Nc2nc3ccc(C(F)(F)F)cc3s2)nc2cc(C(=O)NCCOCCO)ccc21", "cell line": "SH-SY5Y", "assay": "RNA-seq, item: SYT12 mRNA", "setting": "5 µM, 5 h", "scale": "baseline: untreated cells", "measurement": "fold change", "value": 2.28}
{"Structure (SMILES)": "Cc1c(C(=O)O)ccc2c3n(nc12)[C@@H]1[C@H](C3)N(CC2CC2)[C@@]2(C(=O)Nc3cc(Cl)ccc32)[C@H]1c1cccc(Cl)c1F", "cell line": "SNU-719", "assay": "cell proliferation, alamarBlue", "measurement": "IC50", "value": "0.6 nM"}
{"Structure (SMILES)": "CC[S+]([O-])c1nc(-c2cccc(OCc3ccccc3)c2)cc(C(F)(F)F)n1 (centres unmarked)", "cell line": "HeLa Kyoto", "assay": "RelA nuclear import, high content imaging", "setting": "0.05 µM, 3 h, added: 1 µM PMA, 60 min", "measurement": "cells with nuclear RelA", "value": "85.4% and 83.5%"}
{"Structure (SMILES)": "CNc1cc2c(Nc3cccc(Br)c3)ncnc2cn1", "cell line": "HeLa expressing Ub(G76V)-GFP", "assay": "Ub(G76V)-GFP degradation, inhibitor, cycloheximide chase", "setting": "12 µM", "measurement": "inhibition", "value": "53%"}
{"Structure (SMILES)": "Cl.Cl.N=C(NCCCCCCNC(=N)NC(=N)Nc1ccc(Cl)cc1)NC(=N)Nc1ccc(Cl)cc1", "cell line": "BT-12", "assay": "cell viability, MTT", "setting": "10 µM, 72 h", "measurement": "inhibition", "value": "95.4%"}
{"Structure (SMILES)": "COc1ccc(NC(=O)Nc2cccc(-c3cn(Cc4ccccc4C)nn3)c2)cc1", "cell line": "Huh-7", "assay": "annexin V/PI flow cytometry", "setting": "5 µM, 72 h", "measurement": "apoptotic cells", "value": "no effect"}
{"Structure (SMILES)": "O=c1oc2c(O)c(O)cc3c(=O)oc4c(O)c(O)cc1c4c23", "cell line": "HBL-1", "setting": "0.1 µM, 120 h", "measurement": "viability", "value": "98.6%"}
{"Structure (SMILES)": "CCCOc1nc(-c2cccc(O)c2)cc(-c2cc3ccccc3nc2N2CCOCC2)c1C#N", "cell line": "WI-38", "assay": "cell viability, MTT", "setting": "72 h", "measurement": "EC50", "value": "121 ± 0.1 nM"}
{"Structure (SMILES)": "CCc1cnc(N2CCC(c3nc(COc4ccc(-n5cnnn5)cc4)cs3)CC2)nc1", "cell line": "HEK-293T", "assay": "RNA-seq GSEA, item: HALLMARK_FATTY_ACID_METABOLISM", "setting": "concentration not given", "scale": "direction not given", "measurement": "normalized enrichment score", "value": 1.29}
{"Structure (SMILES)": "CC(C)[C@H](NC(=O)c1cc(Cl)ccc1OCCNC(=O)OC(C)(C)C)C(=O)Nc1ccc([N+](=O)[O-])cc1Cl", "cell line": "MDA-MB-231", "assay": "Western blot", "setting": "1, 5, 10 µM, 48 h", "measurement": "cleaved PARP level", "value": "increased"}
{"Structure (SMILES)": "CCn1cc(-c2cc(Cn3ccnc3)cc3c2CCN([C@H](c2cc(OC)ccn2)C2CC2)C3=O)c(C(F)(F)F)n1", "cell line": "NCI-H2087", "assay": "cell growth, inhibitor", "setting": "120 h", "measurement": "EC50", "value": "> 30000 nM"}
{"Structure (SMILES)": "O=C(O)CCNc1cc(N2CCc3ccccc3CC2)nc(-c2ccccn2)n1", "cell line": "HBL-1", "setting": "0.5 µM, 120 h", "measurement": "viability", "value": "113%"}
{"Structure (SMILES)": "COc1ccc(CNC(=O)Nc2ncc([N+](=O)[O-])s2)cc1", "cell line": "HeLa expressing Ub(G76V)-GFP", "assay": "Ub(G76V)-GFP degradation, cycloheximide chase", "setting": "12 µM", "measurement": "inhibition", "value": "87%"}
{"Structure (SMILES)": "O=C(/C=C/N1C[C@H]2C[C@@H]1CN2c1ccccn1)c1ccccc1O", "cell line": "HBL-1", "setting": "0.1 µM, 120 h", "measurement": "viability", "value": "47.1%"}
{"Structure (SMILES)": "COc1ccc(C[C@H](N)C(=O)N[C@H]2[C@@H](O)[C@H](n3cnc4c(N(C)C)ncnc43)O[C@@H]2CO)cc1.Cl.Cl", "cell line": "BT-12", "assay": "cell viability, MTT", "setting": "10 µM, 72 h", "measurement": "inhibition", "value": "94.7%"}
{"Structure (SMILES)": "COc1cc2c(NC3CCN(C(C)C)CC3)nc(C3CCCCC3)nc2cc1OCCCN1CCCC1", "cell line": "HBL-1", "setting": "0.1 µM, 120 h", "measurement": "viability", "value": "124%"}
{"Structure (SMILES)": "C=CCn1c(=O)c2cnc(Nc3ccc(N4CCN(C)CC4)cc3)nc2n1-c1ccc2c(n1)[C@@](O)(CC)CC2", "cell line": "OVCAR-3", "assay": "flow cytometry", "setting": "concentration not given, G2/M phase", "measurement": "γH2AX-positive cells", "value": "29.3%"}
{"Structure (SMILES)": "Clc1ccc(-c2csc(NN=C3CCCC3)n2)cc1", "cell line": "HBL-1", "setting": "0.5 µM, 120 h", "measurement": "viability", "value": "108%"}
{"Structure (SMILES)": "O=C(/C=C/C=C/C=C/C1CCCCC1)NC1=C[C@@](O)(/C=C/C=C/C=C/C(=O)NC2=C(O)CCC2=O)[C@@H]2O[C@@H]2C1=O", "cell line": "HCC4006", "assay": "cell growth, CellTiter-Glo", "setting": "78 h", "measurement": "GI50", "value": "15200 nM"}
{"Structure (SMILES)": "C#CCCC(=O)SCCNC(=O)CCNC(=O)[C@H](O)C(C)(C)COP(=O)(O)OP(=O)(O)OC[C@H]1O[C@@H](n2cnc3c(N)ncnc32)[C@H](O)[C@@H]1OP(=O)(O)O", "cell line": "HBL-1", "setting": "0.5 µM, 120 h", "measurement": "viability", "value": "122%"}
{"Structure (SMILES)": "Cc1nn(-c2nc3c(F)cc(F)cc3s2)c(O)c1C(c1ccc(C(F)(F)F)cc1)c1c(C)nn(-c2nc3c(F)cc(F)cc3s2)c1O", "cell line": "THP1-Dual", "assay": "IFN luciferase reporter", "setting": "2.5 µM, added: HT-DNA", "measurement": "inhibition", "value": "3.42% and -7.11% and 1.2% and -6.07% and 5.66% and 0.104%"}
